# Experimental data collected from several papers.
# Compare with care: the assays were run in different laboratories. ± gives the spread as reported.
# Ugcg: Ceramide glucosyltransferase (Ugcg, Mus musculus, UniProt O88693)
# Chain of UniProt O88693 (whole entry, looked up): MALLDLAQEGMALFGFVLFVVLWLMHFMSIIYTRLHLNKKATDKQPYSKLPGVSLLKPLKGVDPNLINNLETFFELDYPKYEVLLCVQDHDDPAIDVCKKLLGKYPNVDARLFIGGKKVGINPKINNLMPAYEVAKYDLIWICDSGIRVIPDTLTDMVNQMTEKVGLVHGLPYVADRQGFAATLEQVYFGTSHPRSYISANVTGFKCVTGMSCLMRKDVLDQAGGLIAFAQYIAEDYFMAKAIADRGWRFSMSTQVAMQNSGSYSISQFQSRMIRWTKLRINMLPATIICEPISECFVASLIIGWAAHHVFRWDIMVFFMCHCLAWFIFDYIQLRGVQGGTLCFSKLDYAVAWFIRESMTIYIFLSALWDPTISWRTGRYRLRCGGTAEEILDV
SMILES,target or system,test,test system,conditions,scale,quantity,value
CCCCCCCOc1ccc(CC[C@](N)(CO)COP(=O)(O)O)cc1C(F)(F)F,,,"healthy men, plasma","oral, 0.75 mg once daily, day 21, fed state",,AUCτ,195 ng·h/mL
Cc1ccc(-c2ccc(COCCCCCN3C[C@H](O)[C@@H](O)[C@H](O)[C@H]3CO)cc2)cc1,Ugcg,"enzyme activity, inhibitor, fluorescence",,,,IC50,0.1 µM
COc1cccc(OC)c1-c1cc(C(=O)NC2(C(=O)O)C3CC4CC(C3)CC2C4)nn1-c1ccc(C(=O)N(C)CCCN(C)C(=O)[C@H](CCCCNC(=O)[C@H](CC(C)C)NC(=O)C2OC2C(=O)O)NC(=O)CN2CCN(CC(=O)[O-])CCN(CC(=O)[O-])CCN(CC(=O)[O-])CC2)cc1C(C)C.[177Lu+3] (mixture of isomers),,,"mouse, HT-29 xenograft","4 h post injection, biodistribution",baseline: tumour over kidney uptake,tumour-to-kidney ratio,0.53
O=C(NCCOc1ccc(F)cc1)c1ccc([C@H]2[C@@H](F)[C@@H](F)C[C@@H](F)[C@H]2F)cc1,,hepatocyte stability,cryopreserved mouse hepatocytes,1 µM,,hepatic clearance,69 mL/min/kg
COc1cccc(OC)c1-c1cc(C(=O)NC2(C(=O)O)C3CC4CC(C3)CC2C4)nn1-c1ccc(C(=O)NCCNC(=O)[C@H](CCCCNC(=O)[C@H](CC(C)C)NC(=O)C2OC2C(=O)O)NC(=O)CN2CCN(CC(=O)[O-])CCN(CC(=O)[O-])CCN(CC(=O)[O-])CC2)cc1C(C)C.[177Lu+3] (mixture of isomers),,,"mouse, HT-29 xenograft","4 h post injection, biodistribution",baseline: tumour over blood uptake,tumour-to-blood ratio,3.72
F[C@@H]1[C@H](c2ccc(-c3cncnc3)cc2)[C@H](F)[C@H](F)C[C@@H]1F,,liver microsome stability,mouse liver microsomes,1 µM,,hepatic clearance,29 mL/min/kg
CCC1=[N+]2N=C(/C=C/c3ccccc3)C(=O)O[B-]2(c2ccccc2)Oc2cc(N(CC)CC)ccc21 (centres unmarked),,,toluene,,,fluorescence emission maximum,531 nm
O=C(CN1CCCCC1)Nc1ccc([C@H]2[C@@H](F)[C@@H](F)C[C@@H](F)[C@H]2F)cc1,,,cryopreserved human hepatocytes,1 µM,,hepatic clearance,9.9 mL/min/kg
CCn1cc(-c2cc(Cn3ccnc3)cc3c2CCN([C@H](c2cc(OC)ccn2)C2CC2)C3=O)c(C(F)(F)F)n1,,,"CD-1 mouse, male, plasma","intravenous, 3 mg/kg",,AUC extrapolated,0.2%
COc1ccc(-c2ccc([C@H]3[C@@H](F)[C@@H](F)C[C@@H](F)[C@H]3F)cc2)cc1OC,,hepatocyte stability,cryopreserved mouse hepatocytes,1 µM,,hepatic clearance,75 mL/min/kg
C=C(NC(=O)c1csc(-c2nc3c(cc2O)-c2nc(cs2)C(=O)NC(C(C)O)C(=O)NC(=C(C)OC)c2nc(cs2)C(=O)NC2c4nc(cs4)C(=O)NC(COC(=O)c4c5c6c(cccc6n4O)COC(=O)C(OC4CC(C)(O)C(N(C)C)C(C)O4)C2OC5)c2nc-3cs2)n1)C(N)=O (centres unmarked),,,"Sprague-Dawley rat, male, plasma","intravenous infusion, 2 mg/kg single dose",,MRT(0-last),0.71 h
Cc1c(COc2cc(OCc3cccc(C#N)c3)c(CN3C[C@H](O)C[C@@H]3C(=O)O)cc2Cl)cccc1-c1ccc2c(c1)OCCO2,,,"rat, Sprague-Dawley, plasma","1.0 mg/kg, free drug solution",,t1/2,0.167 h
C=C[C@]1(C)C[C@@H](OC(=O)CSc2ccc(NC(=O)c3ccco3)cc2)[C@]2(C)[C@H](C)CC[C@]3(CCC(=O)[C@H]32)[C@@H](C)[C@@H]1O,,,"M. gallisepticum-infected chickens, plasma","intramuscular, 80 mg/kg single dose",,elimination half-life,4.87 h
CCCC[C@H](OC(C)=O)c1ccccc1C(=O)O,,,"Sprague-Dawley rats, both sexes, whole blood","intravenous, 20 mg/kg single dose",,MRT(0-t),2.1 ± 0.18 h
N#CCNC(=O)c1ccc(C2CCCCC2)cc1,,liver microsome stability,mouse liver microsomes,1 µM,,hepatic clearance,81 mL/min/kg
C=CC(=O)Nc1cc(Nc2nccc(-c3cn(C)c4ccccc34)n2)c(OC)cc1N(C)CCNC,,storage stability,human plasma samples,"30 d, -80 °C, MQC level",baseline: nominal concentration,percentage recovery,20.1%
O=C(CC(F)(F)F)Nc1ccc(C2CCCCC2)cc1,,liver microsome stability,mouse liver microsomes,1 µM,,hepatic clearance,87 mL/min/kg
COC(=O)[C@@]1(C)C=C(C(=O)Nc2cccc(C(=O)Nc3ccc(Nc4nccc(-c5cccnc5)n4)c(C)c3)c2)C(=O)CC1,,,"Wistar rat, male, plasma","1 µM, 10 min",,compound remaining,55.9%
OC[C@H]1[C@@H](O)[C@H](O)[C@@H](O)CN1CCCCCOCC12CC3CC(C1)CC(COCCCCCN1C[C@H](O)[C@@H](O)[C@H](O)[C@@H]1CO)(C3)C2,Ugcg,"enzyme activity, inhibitor, fluorescence",,,,IC50,10 µM
O=C(Nc1cnccc1-c1ccc([18F])cc1)c1ccnc(NC(=O)C2CC2)c1,,,"FVB/NJ mouse, both sexes, brain","intravenous, 2 min post-injection, added: P-gp inhibitor tariquidar 15 mg/kg iv",,SUV,1.04 ± 0.41

# For quick reference, copied from above:
SMILES,target or system,test,test system,conditions,scale,quantity,value
COc1ccc(-c2ccc([C@H]3[C@@H](F)[C@@H](F)C[C@@H](F)[C@H]3F)cc2)cc1OC,,hepatocyte stability,cryopreserved mouse hepatocytes,1 µM,,hepatic clearance,75 mL/min/kg
O=C(Nc1cnccc1-c1ccc([18F])cc1)c1ccnc(NC(=O)C2CC2)c1,,,"FVB/NJ mouse, both sexes, brain","intravenous, 2 min post-injection, added: P-gp inhibitor tariquidar 15 mg/kg iv",,SUV,1.04 ± 0.41
